Published values of several laboratories.
Protocols differ between the studies behind these lines. Numbers after ± are the reported error.

| Compound | tested on | assay | test system | conditions | scale | endpoint | result |
| --- | --- | --- | --- | --- | --- | --- | --- |
| Cc1noc(C)c1-c1cc(C(O)(c2ccccn2)c2ccccn2)c2nc(C3CC3)[nH]c2c1 | – | – | human, plasma | oral, 3 mg, cycle 1 day 8, monotherapy | – | AUCtau | 4390 ng·h/mL |
| Fc1ccc([C@@H]2CCNC[C@H]2COc2ccc3c(c2)OCO3)cc1 | – | – | human, CYP2D6 poor metabolizers | oral, 20 mg, steady state, dosing interval 24 h, geometric mean | – | AUCtau | 899 ng·h/mL |
| CCc1nc(C(N)=O)c(Nc2ccc(N3CCC(N4CCN(C)CC4)CC3)c(OC)c2)nc1NC1CCOCC1 | – | – | Japanese patients, plasma | oral, 200 mg, cycle 1 day 28, multiple doses, median | – | AUCtau | 19400 ng·h/mL |
| O=C(O)C[C@H](O)C[C@H](O)/C=C/c1c(C2CC2)nc2ccccc2c1-c1ccc(F)cc1 | COS-7 | – | – | 10 µM, 24 h, 0.1% DMSO, unit not given | reference: vehicle control | confluence | 0.88 ± 0.04 |
| O=C(c1cccnc1-c1ccncc1)N1CCC(O)(Cc2ccccc2)CC1 | – | – | healthy Japanese adults, plasma | oral, 200 mg twice daily, day 14 | – | AUCtau | 861 ng·h/mL |
| CC(C)(CO)c1cc2cc(NC(=O)C3(c4ccc5c(c4)OC(F)(F)O5)CC3)c(F)cc2n1C[C@@H](O)CO | – | – | human, plasma | standard ETI dose | – | AUCtau | 51000 ng·h/mL |
| Cc1cc(-c2nccc3c2ccn3CC(=O)Nc2ccc(-c3cnccn3)cn2)ccn1 | – | – | human, plasma | oral, 5 mg once daily, day 1, geometric mean | – | AUCtau | 0.333 µM·h |
| O=C(O)c1cc(O)c2c(c1)C(=O)c1cccc(O)c1C2=O | HepaRG co-cultured with HK-2 | MTT | – | 266.67 µM, 48 h | reference: untreated control | cell viability | 4.75 ± 4.14% |
| C=CC(=O)Nc1cc(Nc2nccc(Nc3cc(Cl)c(F)cc3C(C)(C)O)n2)c(OC)cc1N1CC[C@@H](N(C)C)C1 | – | – | human patients, plasma | oral, 400 mg daily, cycle 2 day 1, geometric mean | – | AUCtau | 16700 ng·h/mL |
| O=C1c2cccc(O)c2C(=O)c2c(O)cc(CO)cc21 | HepaRG co-cultured with HK-2 | MTT | – | 66.67 µM, 48 h | reference: untreated control | cell viability | 60 ± 4.64% |
| Cc1nn(C)cc1S(=O)(=O)NC(=O)c1ccc(-n2ccc(OCC(C)(C)C(F)(F)F)n2)nc1N1C[C@@H](C)CC1(C)C | – | – | human, plasma | standard ETI dose | – | AUCtau | 61200 ng·h/mL |

For quick reference, copied from above:
| Compound | tested on | assay | test system | conditions | scale | endpoint | result |
| --- | --- | --- | --- | --- | --- | --- | --- |
| CC(C)(CO)c1cc2cc(NC(=O)C3(c4ccc5c(c4)OC(F)(F)O5)CC3)c(F)cc2n1C[C@@H](O)CO | – | – | human, plasma | standard ETI dose | – | AUCtau | 51000 ng·h/mL |
